Experimental data pooled from the literature.
Each line is one published result; not all experiments were run side by side. Several values in a cell are separate wells, animals, samples, runs or records. Numbers after ± are the reported error.
BRAP ZnF-UBD domain: BRCA1-associated protein, ZnF-UBD domain (BRAP, Homo sapiens, UniProt Q7Z569)
Sequence of UniProt Q7Z569 (whole entry, looked up): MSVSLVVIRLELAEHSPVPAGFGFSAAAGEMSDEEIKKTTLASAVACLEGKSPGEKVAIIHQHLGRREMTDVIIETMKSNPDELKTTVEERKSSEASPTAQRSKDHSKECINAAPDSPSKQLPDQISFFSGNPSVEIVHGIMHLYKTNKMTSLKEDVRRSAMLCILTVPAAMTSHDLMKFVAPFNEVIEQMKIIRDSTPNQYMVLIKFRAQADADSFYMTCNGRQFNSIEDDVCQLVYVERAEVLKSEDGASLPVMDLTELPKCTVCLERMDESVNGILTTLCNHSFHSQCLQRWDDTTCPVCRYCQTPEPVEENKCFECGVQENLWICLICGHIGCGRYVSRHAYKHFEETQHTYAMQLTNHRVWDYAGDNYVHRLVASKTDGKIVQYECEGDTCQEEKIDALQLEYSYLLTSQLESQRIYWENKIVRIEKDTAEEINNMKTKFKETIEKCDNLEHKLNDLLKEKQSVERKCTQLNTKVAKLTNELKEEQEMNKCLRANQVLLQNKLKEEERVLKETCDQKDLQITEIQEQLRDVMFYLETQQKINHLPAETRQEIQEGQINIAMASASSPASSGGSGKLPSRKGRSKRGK
HDAC4: Histone deacetylase 4 (HDAC4, Homo sapiens, UniProt P56524)
Sequence of UniProt P56524 (whole entry, looked up): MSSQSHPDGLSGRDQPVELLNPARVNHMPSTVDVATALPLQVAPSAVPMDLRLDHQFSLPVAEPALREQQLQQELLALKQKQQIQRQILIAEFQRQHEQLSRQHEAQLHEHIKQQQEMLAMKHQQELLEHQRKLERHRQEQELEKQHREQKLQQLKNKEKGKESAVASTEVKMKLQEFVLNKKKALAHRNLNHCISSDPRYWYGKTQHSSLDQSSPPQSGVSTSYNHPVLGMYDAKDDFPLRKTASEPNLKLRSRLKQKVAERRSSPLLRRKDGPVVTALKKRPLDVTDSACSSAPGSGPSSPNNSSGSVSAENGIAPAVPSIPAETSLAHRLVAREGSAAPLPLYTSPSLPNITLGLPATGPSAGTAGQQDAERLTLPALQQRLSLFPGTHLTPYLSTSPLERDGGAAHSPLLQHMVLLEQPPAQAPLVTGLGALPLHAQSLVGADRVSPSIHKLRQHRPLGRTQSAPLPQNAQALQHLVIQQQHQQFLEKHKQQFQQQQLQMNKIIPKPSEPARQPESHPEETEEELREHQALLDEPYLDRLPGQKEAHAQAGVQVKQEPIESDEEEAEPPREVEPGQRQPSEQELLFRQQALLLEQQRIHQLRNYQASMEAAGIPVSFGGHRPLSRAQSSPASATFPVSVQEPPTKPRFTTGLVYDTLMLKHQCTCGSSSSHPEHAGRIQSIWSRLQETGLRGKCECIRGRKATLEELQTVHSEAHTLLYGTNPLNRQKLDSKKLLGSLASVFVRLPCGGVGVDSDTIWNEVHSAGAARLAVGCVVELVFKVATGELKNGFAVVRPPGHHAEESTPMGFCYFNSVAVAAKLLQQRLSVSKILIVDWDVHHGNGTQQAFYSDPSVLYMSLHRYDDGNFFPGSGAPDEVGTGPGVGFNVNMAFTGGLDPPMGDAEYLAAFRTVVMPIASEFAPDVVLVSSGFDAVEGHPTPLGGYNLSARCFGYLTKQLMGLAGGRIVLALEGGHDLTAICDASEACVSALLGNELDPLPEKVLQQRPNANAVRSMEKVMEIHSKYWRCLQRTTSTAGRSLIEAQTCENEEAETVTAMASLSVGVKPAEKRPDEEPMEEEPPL
SULT2A1: Sulfotransferase 2A1 (SULT2A1, Homo sapiens, UniProt Q06520)
Sequence of UniProt Q06520 (whole entry, looked up): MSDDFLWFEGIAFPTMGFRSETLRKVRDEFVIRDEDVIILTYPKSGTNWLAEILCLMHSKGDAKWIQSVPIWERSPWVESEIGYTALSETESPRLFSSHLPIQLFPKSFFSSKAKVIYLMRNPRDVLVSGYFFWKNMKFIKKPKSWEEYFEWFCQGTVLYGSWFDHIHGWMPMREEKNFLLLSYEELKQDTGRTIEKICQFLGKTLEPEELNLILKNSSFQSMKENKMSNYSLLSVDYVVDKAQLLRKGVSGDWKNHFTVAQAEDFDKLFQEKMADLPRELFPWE
gtr1 with Gtr2: GTP-binding protein gtr1, with Gtr2 (gtr1, Schizosaccharomyces pombe, UniProt O74824)
Sequence of UniProt O74824 (whole entry, looked up): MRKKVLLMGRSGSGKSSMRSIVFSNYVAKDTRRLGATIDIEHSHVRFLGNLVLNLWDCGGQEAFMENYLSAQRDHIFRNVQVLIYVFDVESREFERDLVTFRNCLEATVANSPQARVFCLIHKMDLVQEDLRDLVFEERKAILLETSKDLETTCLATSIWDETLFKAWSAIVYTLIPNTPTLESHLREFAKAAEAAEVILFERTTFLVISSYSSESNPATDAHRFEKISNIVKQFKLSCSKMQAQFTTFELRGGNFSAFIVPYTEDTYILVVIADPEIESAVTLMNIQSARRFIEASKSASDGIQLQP
ESR2: Estrogen receptor beta (ESR2, Homo sapiens, UniProt Q92731)
Sequence of UniProt Q92731 (whole entry, looked up): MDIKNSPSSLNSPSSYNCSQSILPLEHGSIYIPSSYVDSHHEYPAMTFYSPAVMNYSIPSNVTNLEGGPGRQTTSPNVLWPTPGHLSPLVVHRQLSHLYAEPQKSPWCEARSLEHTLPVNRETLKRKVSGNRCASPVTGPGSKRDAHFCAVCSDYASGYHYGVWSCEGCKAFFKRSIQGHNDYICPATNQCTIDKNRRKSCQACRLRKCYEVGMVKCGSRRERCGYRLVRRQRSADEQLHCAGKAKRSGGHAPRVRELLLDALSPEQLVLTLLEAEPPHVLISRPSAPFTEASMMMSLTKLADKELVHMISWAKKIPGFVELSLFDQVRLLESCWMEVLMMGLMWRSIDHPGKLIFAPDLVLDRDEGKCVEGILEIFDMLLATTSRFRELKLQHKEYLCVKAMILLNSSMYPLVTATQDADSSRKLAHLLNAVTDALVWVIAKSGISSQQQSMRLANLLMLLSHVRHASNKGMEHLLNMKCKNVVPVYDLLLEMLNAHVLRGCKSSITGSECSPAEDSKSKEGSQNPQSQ
Sequence of UniProt Q8N2S1 (whole entry, looked up): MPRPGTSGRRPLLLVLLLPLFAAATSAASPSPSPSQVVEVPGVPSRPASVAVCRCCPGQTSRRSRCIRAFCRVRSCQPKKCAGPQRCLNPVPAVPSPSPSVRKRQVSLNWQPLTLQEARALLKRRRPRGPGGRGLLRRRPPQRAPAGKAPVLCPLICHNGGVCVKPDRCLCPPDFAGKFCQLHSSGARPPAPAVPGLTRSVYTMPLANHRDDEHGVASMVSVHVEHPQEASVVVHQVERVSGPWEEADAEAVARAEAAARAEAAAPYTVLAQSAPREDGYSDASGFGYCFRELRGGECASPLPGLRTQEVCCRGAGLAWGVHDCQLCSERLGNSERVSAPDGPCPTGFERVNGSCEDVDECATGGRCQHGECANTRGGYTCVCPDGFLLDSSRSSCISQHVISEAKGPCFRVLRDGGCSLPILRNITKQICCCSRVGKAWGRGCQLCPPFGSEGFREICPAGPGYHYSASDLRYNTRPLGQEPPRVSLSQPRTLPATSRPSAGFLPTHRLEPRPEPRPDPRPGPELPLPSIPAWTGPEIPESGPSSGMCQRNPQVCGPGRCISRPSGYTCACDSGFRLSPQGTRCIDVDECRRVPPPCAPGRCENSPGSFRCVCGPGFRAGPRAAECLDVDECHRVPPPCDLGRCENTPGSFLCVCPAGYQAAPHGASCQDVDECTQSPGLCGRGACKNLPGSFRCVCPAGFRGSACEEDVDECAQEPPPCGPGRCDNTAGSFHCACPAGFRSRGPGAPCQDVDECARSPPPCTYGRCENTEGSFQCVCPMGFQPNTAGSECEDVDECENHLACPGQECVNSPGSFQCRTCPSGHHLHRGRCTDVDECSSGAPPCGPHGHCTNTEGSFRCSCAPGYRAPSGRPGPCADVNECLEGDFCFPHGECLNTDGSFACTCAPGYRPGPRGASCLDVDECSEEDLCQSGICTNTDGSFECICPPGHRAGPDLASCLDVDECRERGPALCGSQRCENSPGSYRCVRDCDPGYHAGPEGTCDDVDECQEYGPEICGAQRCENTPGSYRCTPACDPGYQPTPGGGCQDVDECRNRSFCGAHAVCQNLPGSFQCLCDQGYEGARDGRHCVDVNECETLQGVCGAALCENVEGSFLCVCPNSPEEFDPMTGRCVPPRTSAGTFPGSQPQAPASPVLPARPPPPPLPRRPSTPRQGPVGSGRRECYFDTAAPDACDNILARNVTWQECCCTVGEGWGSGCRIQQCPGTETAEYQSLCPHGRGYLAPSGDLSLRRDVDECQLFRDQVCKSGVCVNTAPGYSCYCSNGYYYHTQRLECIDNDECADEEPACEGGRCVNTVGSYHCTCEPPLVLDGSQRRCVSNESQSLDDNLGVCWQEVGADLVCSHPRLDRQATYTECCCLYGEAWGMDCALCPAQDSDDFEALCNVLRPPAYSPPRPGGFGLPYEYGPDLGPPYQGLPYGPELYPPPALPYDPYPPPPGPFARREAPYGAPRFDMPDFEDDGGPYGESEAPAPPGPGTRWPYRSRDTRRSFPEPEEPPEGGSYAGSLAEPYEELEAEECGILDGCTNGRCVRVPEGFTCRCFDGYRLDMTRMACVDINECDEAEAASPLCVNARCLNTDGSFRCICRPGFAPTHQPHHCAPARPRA
Sequence of UniProt Q9JMA9 (whole entry, looked up): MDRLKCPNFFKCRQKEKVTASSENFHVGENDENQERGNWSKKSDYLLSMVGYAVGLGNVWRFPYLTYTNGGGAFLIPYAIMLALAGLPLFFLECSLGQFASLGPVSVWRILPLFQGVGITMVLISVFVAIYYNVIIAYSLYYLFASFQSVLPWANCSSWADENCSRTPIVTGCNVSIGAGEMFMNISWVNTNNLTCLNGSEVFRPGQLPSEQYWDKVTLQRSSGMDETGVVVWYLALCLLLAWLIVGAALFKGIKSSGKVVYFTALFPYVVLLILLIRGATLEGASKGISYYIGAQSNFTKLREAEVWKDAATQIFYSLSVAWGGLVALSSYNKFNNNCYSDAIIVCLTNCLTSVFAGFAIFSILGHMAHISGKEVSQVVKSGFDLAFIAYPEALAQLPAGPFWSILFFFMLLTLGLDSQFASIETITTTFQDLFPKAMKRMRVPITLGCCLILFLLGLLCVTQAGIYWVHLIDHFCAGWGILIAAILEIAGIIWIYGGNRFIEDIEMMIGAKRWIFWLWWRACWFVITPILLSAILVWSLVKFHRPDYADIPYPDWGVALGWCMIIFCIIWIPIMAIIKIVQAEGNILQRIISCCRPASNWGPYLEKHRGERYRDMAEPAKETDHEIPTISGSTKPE

With CCOC(=O)C1=C(C)NC(C)=C(C(=O)OC)C1c1cccc([N+](=O)[O-])c1 (centres unmarked) the inhibition was 22.2% (Nedd8-cullin1 interaction; neddylation, AlphaScreen; 100 µM).
O=c1ccn([C@@H]2O[C@H](COP(=O)(O)OP(=O)(O)O)[C@@H](O)[C@H]2O)c(=O)[nH]1 has a Kd of 486 ± 7 µM (ABO (Homo sapiens, UniProt P16442, G235S/G268A/L266M/R176G/W181M); methyl-TROSY NMR titration lineshape; mutant presaturated with H-disaccharide).
[Na+] has a Kd of 67400 µM (Sodium- and chloride-dependent neutral and basic amino acid transporter B(0+), apo form (Slc6a14, Mus musculus, UniProt Q9JMA9); pre-steady-state charge movement, Hill fit; Xenopus oocytes).
For NC(=O)[C@H]1CCCN1C(=O)CCC(=O)O, the Kd was 462 µM (BRAP ZnF-UBD domain).
For NCCS(=O)(=O)O, the Kd was 657 ± 804 µM (SLC6A6 (Homo sapiens, UniProt P31641, F300A); microscale thermophoresis; F300A mutant).
The inhibition of CCOC(=O)C1=C(C)NC(C)=C(C(=O)OCC)C1c1ccccc1/C=C/C(=O)OC(C)(C)C is reported as 14.8% (Nedd8-cullin1 interaction; neddylation, AlphaScreen; 100 µM).
Nc1ncnc2c1ncn2[C@@H]1O[C@H](COP(=O)(O)OP(=O)(O)O)[C@@H](O)[C@H]1O has a Kd of 114 ± 85 µM (CKMT1A (Homo sapiens, UniProt P12532); microscale thermophoresis; pH 8.5, wild type, no substrate).
The Kd of O=C(O)CNc1ncnc2ccccc12 is reported as > 1000 µM (BRAP ZnF-UBD domain).
The Kd of COc1cc(O)c2c(c1)oc(=O)c1c3cc(O)c(O)cc3oc21 is reported as 4.11 µM (MAL12 (Saccharomyces cerevisiae S288c, UniProt P53341); fluorescence quenching; 304 K).
With CCOc1cc(-c2nncn2C)ccc1Nc1ncc2cc(C)nc(NCC(C)(C)C)c2n1 the Kd was 0.19 µM (CLK; KINOMEscan).
The Kd of O=C(O)CCn1cnc2ccccc21 is reported as > 1000 µM (BRAP ZnF-UBD domain).
CCCC(CCC)C(=O)O gave a Kd of > 3020 µM (HDAC4; inhibitor, competition pulldown; SW620 and MV4-11 lysate; 1 h).
For O=C(O)CC(=O)C(=O)O, the Kd was 0.0124 µM and 0.00687 µM (Uncharacterized protein (Pelagibacter ubique, UniProt Q4FKX4); isothermal titration calorimetry; Candidatus Pelagibacter ubique).
With O=C(O)Cc1c[nH]c2ccccc12 the Kd was 1.82 µM (Receptor protein kinase TMK1, extracellular domain (TMK1, Arabidopsis thaliana, UniProt P43298); binding, microscale thermophoresis; HA-tagged protein from protoplasts).
C[C@]12CC[C@H](O)CC1=CC[C@@H]1[C@@H]2CC[C@]2(C)C(=O)CC[C@@H]12 has a Kd of 0.28 ± 0.02 µM (SULT2A1; intrinsic protein fluorescence titration; pH 7.4, without PAP).
Nc1nc2c(ncn2[C@@H]2O[C@H](COP(=O)(O)OP(=O)(O)OP(=O)(O)O)[C@@H](O)[C@H]2O)c(=O)[nH]1 has a Kd of 0.07 µM (gtr1 with Gtr2; binding, UV crosslinking equilibrium titration; 4 °C, no 7.4).
C#Cc1c(F)ccc2cc(O)cc(-c3ncc4c(N5CC6CCC(C5)N6)nc(OC[C@@]56CCCN5C[C@H](F)C6)nc4c3F)c12 gave a Kd of > 30 µM (RIT1, GDP-bound (Homo sapiens, UniProt Q92963); binding, surface plasmon resonance).
With N#Cc1c2n(c3c(=O)n(CC(=O)O)cnc13)CCCC2 the Kd was 215 µM (BRAP ZnF-UBD domain).
For Nc1ncnc2c1ncn2[C@@H]1O[C@@H]2COP(=O)(O)O[C@H]3[C@@H](O)[C@H](n4cnc5c(N)ncnc54)O[C@@H]3COP(=O)(O)O[C@H]2[C@H]1O, the Kd was 20.1 ± 3.4 µM (uncharacterized protein (Thermoanaerobacter brockii, UniProt E8USF0)).
For O=C(O)CCn1sc2ccccc2c1=O, the Kd was > 1000 µM (BRAP ZnF-UBD domain).
For Nc1ncnc2c1ncn2[C@@H]1O[C@H](COP(=O)(O)OP(=O)(O)OP(=O)(O)O)[C@@H](O)[C@H]1O, the Kd was 18 ± 4 µM (CKMT1A (Homo sapiens, UniProt P12532, E264A); microscale thermophoresis; pH 8.5, E226A mutant, no substrate).
For C[C@@H]1C[C@H]2O[C@@H]2/C=C\C=C\C(=O)Cc2c(Cl)c(O)cc(O)c2C(=O)O1, the Kd was > 10 µM (TGFBR2 (Homo sapiens, UniProt P37173); competition binding; 11-point threefold dilution).
For CC(C)=CCc1cc(-c2coc3cc(O)ccc3c2=O)ccc1O, the EC50 was 0.0504 µM (ESR2; array formation, agonist; GFP-ERβ PRL-HeLa; 1 h).
O=C1CC(C(=O)O)NC(=O)N1 (centres unmarked) gave a Kd of 145 ± 54 µM (Dihydroorotate dehydrogenase A (fumarate) (pyrDA, Lactococcus lactis subsp. cremoris, UniProt A2RJT9); binding, stopped-flow; Lactococcus lactis, wild-type).
C=CC1=C(C)C2=Cc3c(C=C)c(C)c4[n]3[Fe]([Cl])[n]3c(c(C)c(CCC(=O)O)c3=CC3=NC(=C4)C(C)=C3CCC(=O)O)=CC1=N2 gave a Kd of 0.61 µM (5-aminolevulinate synthase, erythroid-specific, mitochondrial (Human, UniProt P22557, C555A/C558A/C70A)).
The Kd of O=C(O)CCc1cnn(-c2ccccc2)c1 is reported as > 1000 µM (BRAP ZnF-UBD domain).
Nc1ncnc2c1ncn2[C@@H]1O[C@H](COP(=O)(O)OP(=O)(O)O)[C@@H](O)[C@H]1O has a Kd of 120 ± 20 µM (GUK1 (Homo sapiens, UniProt Q16774, R137A); binding, ITC; 25 °C, with: GMP).
CCCN1CCN(c2ccc(-c3cncc(Cl)c3N3CCC4(CCNC4=O)CC3)cc2)CC1 has a Kd of 0.465 µM (PIKFYVE (Homo sapiens, UniProt Q9Y2I7); SILAC displacement; LS174T-L5 cell lysate).
COc1cc(Nc2ncc3c(n2)-c2ccc(Cl)cc2C(c2c(F)cccc2OC)=NC3)ccc1C(=O)NCCOCCOCCNC(=O)COc1cccc2c1C(=O)N(C1CCC(=O)NC1=O)C2=O (centres unmarked) has a Kd of 5.1 µM (Aurora kinase B (AURKB, Homo sapiens, UniProt Q96GD4); binding, kinobead competition; MV4-11 cell lysate).
For Cn1cc(-c2ccc(S(=O)(=O)n3ccc(/C=C/C(=O)Nc4ccccc4N)c3)cc2)cn1, the Kd was > 30.2 µM (HDAC4; inhibitor, competition pulldown; SW620 and MV4-11 lysate; 1 h).
O=C(O)Cc1nc2ccccc2o1 has a Kd of > 1000 µM (BRAP ZnF-UBD domain).
For CC(C)(COP(=O)(O)OP(=O)(O)OC[C@H]1O[C@@H](n2cnc3c(N)ncnc32)[C@H](O)[C@@H]1OP(=O)(O)O)[C@@H](O)C(=O)NCCC(=O)NCCS, the Kd was 6.45 µM (Ethylmalonyl-CoA decarboxylase (ECHDC1, Homo sapiens, UniProt Q9NTX5); competitor, competition MS pulldown; SW-620 cell lysate; with: photo-immobilized beads).
CSc1nc(C)c(CCC(=O)O)c(=O)[nH]1 gave a Kd of > 1000 µM (BRAP ZnF-UBD domain).
With Cc1cc2nc3c(=O)[nH]c(=O)nc-3n(C[C@H](O)[C@H](O)[C@H](O)COP(=O)(O)OP(=O)(O)OC[C@H]3O[C@@H](n4cnc5c(N)ncnc54)[C@H](O)[C@@H]3O)c2cc1C the Kd was 0.116 µM (Latent-transforming growth factor beta-binding protein 4 (LTBP4, Homo sapiens, UniProt Q8N2S1); binding, MS pulldown competition; SW-620 cell lysate).
For O=C(NO)c1cnc(NC2(c3ccccc3)CC2)nc1, the Kd was > 30.2 µM (HDAC4; inhibitor, competition pulldown; SW620 and MV4-11 lysate; 1 h).
The EC50 of O=c1ccoc2cc(O)ccc12 is reported as 5.22 µM (ESR2; array formation, agonist; GFP-ERβ PRL-HeLa; 1 h).
Nc1nc2c(ncn2[C@@H]2O[C@H](COP(=O)(O)OP(=O)(O)O)[C@@H](O)[C@H]2O)c(=O)[nH]1 has a Kd of 0.63 µM (gtr1 with Gtr2; binding, UV crosslinking equilibrium titration; 4 °C, no 7.4).
Nc1ncnc2c1ncn2[C@@H]1O[C@H](COP(=O)(O)O)[C@@H](OP(=O)(O)O)[C@H]1O has a Kd of 0.4 ± 0.06 µM (SULT2A1; intrinsic fluorescence titration; pH 7.4, without DHEA).

Repeated from above:
The EC50 of O=c1ccoc2cc(O)ccc12 is reported as 5.22 µM (ESR2; array formation, agonist; GFP-ERβ PRL-HeLa; 1 h).
The inhibition of CCOC(=O)C1=C(C)NC(C)=C(C(=O)OCC)C1c1ccccc1/C=C/C(=O)OC(C)(C)C is reported as 14.8% (Nedd8-cullin1 interaction; neddylation, AlphaScreen; 100 µM).
For CC(C)(COP(=O)(O)OP(=O)(O)OC[C@H]1O[C@@H](n2cnc3c(N)ncnc32)[C@H](O)[C@@H]1OP(=O)(O)O)[C@@H](O)C(=O)NCCC(=O)NCCS, the Kd was 6.45 µM (Ethylmalonyl-CoA decarboxylase (ECHDC1, Homo sapiens, UniProt Q9NTX5); competitor, competition MS pulldown; SW-620 cell lysate; with: photo-immobilized beads).
O=C(O)Cc1nc2ccccc2o1 has a Kd of > 1000 µM (BRAP ZnF-UBD domain).
With N#Cc1c2n(c3c(=O)n(CC(=O)O)cnc13)CCCC2 the Kd was 215 µM (BRAP ZnF-UBD domain).
